Assay results pooled from the literature.
± gives the spread as reported.

Compound	assay	test system	setting	scale	measurement	result
CCCCSc1nnc(-c2ccc(N)cc2)o1	–	–	IC50	–	H2O2 scavenging	58%
CCCC[C@H](NC(=O)[C@@H](NC(=O)[C@H](CC(=O)O)NC(=O)[C@H](CCC(N)=O)NC(=O)[C@H](CC(C)C)NC(=O)[C@H](CC(C)C)NC(=O)[C@H](CCCN)NC(=O)[C@H](CCCNC(=N)N)NC(=O)[C@H](C)NC(=O)[C@H](CO)NC(=O)[C@H](CC(C)C)NC(=O)[C@H](CCC(N)=O)NC(=O)[C@H](CC)NC(=O)[C@H](CC(C)C)NC(=O)[C@@H](NC(=O)[C@H](CCCN)NC(=O)[C@H](CCCNC(=N)N)NC(=O)[C@H](Cc1ccc(O)cc1)NC(=O)[C@H](CO)NC(=O)[C@H](CCC(N)=O)NC(=O)[C@@H](NC(=O)[C@H](Cc1ccccc1)NC(=O)[C@@H](NC(=O)[C@H](C)NC(=O)[C@H](CC(=O)O)NC(=O)[C@H](C)NC(=O)CCc1ccc(O)cc1)[C@@H](C)CC)[C@@H](C)O)C(C)C)[C@@H](C)CC)C(=O)N[C@@H](CC(=O)O)C(=O)N[C@@H](CCCNC(=N)N)C(=O)NCCCCC(N)=O	GH release	male rat, serum	subcutaneous, dose not given, 15 min	baseline: GHRH(1-29)NH2	relative potency	73.5
O=C1/C(=C/c2ccc(O)c(O)c2)Oc2c1c(O)cc(O)c2-c1ccc(O)c(O)c1	ABTS scavenging, absorbance	–	–	–	EC50	880 µM
CC(C)CCC[C@@H](C)[C@H]1CC[C@H]2[C@@H]3CC=C4C[C@@H](OS(=O)(=O)O)CC[C@]4(C)[C@H]3CC[C@]12C	–	normal human plasma	37 °C, highest tested 3000 µM, together with: thromboplastin-D	–	concentration doubling prothrombin time	> 3000 µM
NS(=O)(=O)NCC(O)c1ccccc1F (centres unmarked)	protection from scPTZ seizures	mouse	together with: pentylenetetrazol 85 mg/kg s.c.	–	ED50	> 250 mg/kg
C=C(c1ncc(C(=O)O)cn1)c1cc2c(cc1C)C(C)(C)CCC2(C)C	RNA sequencing, refers to: Ifit3 mRNA	rat, brain	dose not given, 24 h, single dose	baseline: vehicle	log2 fold change	-0.88
CCCC[C@H](NC(=O)[C@@H](NC(=O)[C@H](CC(=O)O)NC(=O)[C@H](CCC(N)=O)NC(=O)[C@H](CC(C)C)NC(=O)[C@H](CC(C)C)NC(=O)[C@H](CCCN)NC(=O)[C@H](CCCNC(=N)N)NC(=O)[C@H](C)NC(=O)[C@H](CO)NC(=O)[C@H](CC(C)C)NC(=O)[C@H](CCC(N)=O)NC(=O)[C@H](CC)NC(=O)[C@H](CC(C)C)NC(=O)[C@@H](NC(=O)[C@H](CCCN)NC(=O)[C@H](CCCNC(=N)N)NC(=O)[C@H](Cc1ccc(O)cc1)NC(=O)[C@H](CO)NC(=O)[C@H](CCC(N)=O)NC(=O)[C@@H](NC(=O)[C@H](Cc1ccccc1)NC(=O)[C@@H](NC(=O)[C@H](C)NC(=O)[C@H](CC(=O)O)NC(=O)[C@@H](C)NC(=O)[C@H](Cc1ccc(O)cc1)NC)[C@@H](C)CC)[C@@H](C)O)C(C)C)[C@@H](C)CC)C(=O)N[C@@H](CC(=O)O)C(=O)N[C@@H](CCCNC(=N)N)C(=O)NC	GH release	rat, male, serum	intravenous, 1 µg/kg, 5 min	baseline: reference GHRH agonist JI-38	relative potency	1.19
COc1ccc2c(c1)c(CC(=O)OCC(=O)c1ccccc1)c(C)n2C(=O)c1ccc(Cl)cc1	hot plate test	BALB/c mice	50 mg/kg, 120 min	–	latency of nociceptive response	14.8 ± 1.41 s
CCOC(=O)c1cc2c(N)c(C(=O)OC)sc2nc1C	–	wild-type mice	subcutaneous, 100 mg/kg	–	duration of diuretic effect	~8 h
O=C1c2c(cc(O)c3c2oc2cc(O)c(O)cc23)OC1Cc1ccc(O)c(O)c1 (centres unmarked)	ABTS scavenging, absorbance	–	–	–	EC50	880 µM
CC[C@H](C)[C@H](N)C(=O)N1CCC[C@H]1C(=O)NCC(=O)NCC(=O)O	diketopiperazine formation, Arrhenius plot, ESI-MS	1-propanol	70, 80, 90 °C, 0.5% acetic acid	–	activation energy	18.6 ± 1.43 kcal/mol
CC(=O)[O-].[Cu+2].[O-]c1ccc(Br)cc1C=NCCN1CCOCC1	nitric oxide scavenging	–	–	–	IC50	240 µM
Cc1cc(O)c(C=O)c2c1C(=O)Oc1c(CO)c(O)c3c(c1O2)C(O)OC3=O (centres unmarked)	–	rat, male, streptozotocin-induced diabetes, cauda epididymis	5 mg/kg, 9 weeks	–	sperm viability	56.3 ± 2.34%
O=C([O-])CN1CCN(CC(=O)[O-])CCN(C(CCC(=O)NC(Cc2c[nH]c3ccc(O)cc23)C(=O)NCCc2c[nH]c3ccc(O)cc23)C(=O)O)CCN(CC(=O)[O-])CC1.[Gd+3] (centres unmarked)	MR imaging	mice CFA inflammation	–	baseline: DOTA-Gd	contrast-to-noise ratio	4 to 10 fold
CCCC[C@H](NC(=O)[C@@H](NC(=O)[C@H](CC(=O)O)NC(=O)[C@H](CCC(N)=O)NC(=O)[C@H](CC(C)C)NC(=O)[C@H](CC(C)C)NC(=O)[C@H](CCCN)NC(=O)[C@H](CCCNC(=N)N)NC(=O)[C@H](C)NC(=O)[C@H](CO)NC(=O)[C@H](CC(C)C)NC(=O)[C@H](CCC(N)=O)NC(=O)[C@H](CC)NC(=O)[C@H](CC(C)C)NC(=O)[C@@H](NC(=O)[C@H](CCCN)NC(=O)[C@H](CCCNC(=N)N)NC(=O)[C@H](Cc1ccc(O)cc1)NC(=O)[C@H](CO)NC(=O)[C@H](CCC(N)=O)NC(=O)[C@@H](NC(=O)[C@H](Cc1ccccc1)NC(=O)[C@@H](NC(=O)[C@H](C)NC(=O)[C@H](CC(=O)O)NC(=O)[C@@H](C)NC(=O)[C@H](Cc1ccc(O)cc1)NC)[C@@H](C)CC)[C@@H](C)O)C(C)C)[C@@H](C)CC)C(=O)N[C@@H](CC(=O)O)C(=O)NCCCCNC(=N)N	GH release	male rat, serum	subcutaneous, dose not given, 15 min	baseline: GHRH(1-29)NH2	relative potency	80
BP(=O)(OP(=O)([O-])OC[C@H]1O[C@@H](n2c[n+](C)c3c(=O)[nH]c(N)nc32)[C@H](O)[C@@H]1O)OP(=O)([O-])OC[C@H]1O[C@@H](n2c[n+](C)c3c(=O)[nH]c(N)nc32)[C@H](O)[C@@H]1O	cap-dependent translation	rabbit reticulocyte lysate	no cap pre-incubation	baseline: m7GpppG over compound	IC50 ratio	2.9 fold
CCCC[C@H](NC(=O)[C@@H](NC(=O)[C@H](CC(=O)O)NC(=O)[C@H](CCC(N)=O)NC(=O)[C@H](CC(C)C)NC(=O)[C@H](CC(C)C)NC(=O)[C@H](CCCN)NC(=O)[C@H](CCCNC(=N)N)NC(=O)[C@H](C)NC(=O)[C@H](CO)NC(=O)[C@H](CC(C)C)NC(=O)[C@H](CCC(N)=O)NC(=O)[C@H](CC)NC(=O)[C@H](CC(C)C)NC(=O)[C@@H](NC(=O)[C@H](CCCN)NC(=O)[C@H](CCCNC(=N)N)NC(=O)[C@H](Cc1ccc(O)cc1)NC(=O)[C@H](CO)NC(=O)[C@H](CC(N)=O)NC(=O)[C@@H](NC(=O)[C@H](Cc1ccccc1)NC(=O)[C@@H](NC(=O)[C@H](C)NC(=O)[C@H](CC(=O)O)NC(=O)[C@@H](CC)NC(=O)CCc1ccc(O)cc1)[C@@H](C)CC)[C@@H](C)O)C(C)C)[C@@H](C)CC)C(=O)N[C@@H](CO)C(=O)N[C@@H](CCCNC(=N)N)C(=O)NCCCC(N)=O	GH release	rat, male, serum	intravenous, 1 µg/kg, 15 min	baseline: reference GHRH agonist JI-38	relative potency	1.5
CCC(=O)N1CCN(c2ccc(N(C)C(=O)C(C)(C)c3cc(C(F)(F)F)cc(C(F)(F)F)c3)c(-c3ccccc3C)c2)CC1	mechanical allodynia, antagonist, von Frey test	hNK1R-407 mice	intrathecal, 5 µL, 100 nM, together with: capsaicin	–	duration of inhibition	≥ 8 h
CCCCC1NC(=O)c2ccccc21 (racemic)	thrombosis	mouse, carrageenan-induced thrombosis	oral, 50 mg/kg daily for 2 days, 48 h after carrageenan	–	black tail length	3.4 ± 0.5 cm
C[C@@H](O)[C@@H]1NC(=O)[C@H](CCCCN)NC(=O)[C@@H](Cc2ccc(NC(N)=O)cc2)NC(=O)[C@H](Cc2ccc(NC(=O)[C@@H]3CC(=O)NC(=O)N3)cc2)NC(=O)[C@H](NC(=O)[C@H](Cc2ccc(Cl)cc2)NC(=O)CN2CCN(CC(=O)O)CCN(CC(=O)O)CCN(CC(=O)O)CC2)CSSC[C@@H](C(=O)N[C@H](Cc2ccc(O)cc2)C(N)=O)NC1=O [gallium-68 labelled]	PET/CT	human neuroendocrine tumour patients, all lesions	60 min	–	SUVmax	21 ± 21
